Measured values collected from several papers.
Parts stem from different laboratories: compare values within a part only. “And” joins repeats or separate records; there may be more than shown.
Sequence of UniProt Q04912 (whole entry, looked up): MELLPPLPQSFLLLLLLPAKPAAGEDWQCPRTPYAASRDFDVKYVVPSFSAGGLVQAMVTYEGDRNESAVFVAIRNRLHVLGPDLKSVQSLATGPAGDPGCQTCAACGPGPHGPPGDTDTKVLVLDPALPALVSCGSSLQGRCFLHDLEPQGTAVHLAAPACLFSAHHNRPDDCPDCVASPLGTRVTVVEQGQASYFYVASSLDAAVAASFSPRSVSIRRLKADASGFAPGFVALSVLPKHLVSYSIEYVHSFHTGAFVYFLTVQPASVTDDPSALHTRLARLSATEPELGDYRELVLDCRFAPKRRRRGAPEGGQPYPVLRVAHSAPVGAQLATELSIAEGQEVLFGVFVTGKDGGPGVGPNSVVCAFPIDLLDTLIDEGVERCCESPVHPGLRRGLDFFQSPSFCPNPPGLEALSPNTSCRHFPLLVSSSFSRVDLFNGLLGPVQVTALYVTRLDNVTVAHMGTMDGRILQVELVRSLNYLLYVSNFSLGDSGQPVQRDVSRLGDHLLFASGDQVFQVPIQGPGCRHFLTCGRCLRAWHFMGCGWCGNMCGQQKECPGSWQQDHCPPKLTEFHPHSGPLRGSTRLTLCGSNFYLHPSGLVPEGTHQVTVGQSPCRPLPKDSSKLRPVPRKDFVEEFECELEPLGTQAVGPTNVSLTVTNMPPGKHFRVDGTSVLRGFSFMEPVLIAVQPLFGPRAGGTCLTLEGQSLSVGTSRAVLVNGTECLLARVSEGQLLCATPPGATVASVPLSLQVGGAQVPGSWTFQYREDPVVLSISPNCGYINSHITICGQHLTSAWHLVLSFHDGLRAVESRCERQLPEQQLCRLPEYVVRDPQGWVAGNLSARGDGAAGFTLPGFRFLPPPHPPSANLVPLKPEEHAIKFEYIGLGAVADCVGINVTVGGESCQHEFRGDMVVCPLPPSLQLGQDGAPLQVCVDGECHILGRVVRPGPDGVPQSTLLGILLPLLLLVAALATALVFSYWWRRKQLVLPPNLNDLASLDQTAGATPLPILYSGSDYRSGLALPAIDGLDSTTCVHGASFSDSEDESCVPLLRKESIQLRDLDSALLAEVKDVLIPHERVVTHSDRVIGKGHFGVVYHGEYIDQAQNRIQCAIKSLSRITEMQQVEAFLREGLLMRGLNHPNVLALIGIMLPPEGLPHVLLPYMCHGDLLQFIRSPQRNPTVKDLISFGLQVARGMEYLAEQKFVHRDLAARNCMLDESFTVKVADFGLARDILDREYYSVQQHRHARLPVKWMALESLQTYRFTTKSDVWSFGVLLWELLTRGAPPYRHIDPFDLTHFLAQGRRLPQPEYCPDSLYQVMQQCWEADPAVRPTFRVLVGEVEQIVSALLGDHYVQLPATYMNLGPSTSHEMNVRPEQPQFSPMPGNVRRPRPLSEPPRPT
Sequence of UniProt P29320 (whole entry, looked up): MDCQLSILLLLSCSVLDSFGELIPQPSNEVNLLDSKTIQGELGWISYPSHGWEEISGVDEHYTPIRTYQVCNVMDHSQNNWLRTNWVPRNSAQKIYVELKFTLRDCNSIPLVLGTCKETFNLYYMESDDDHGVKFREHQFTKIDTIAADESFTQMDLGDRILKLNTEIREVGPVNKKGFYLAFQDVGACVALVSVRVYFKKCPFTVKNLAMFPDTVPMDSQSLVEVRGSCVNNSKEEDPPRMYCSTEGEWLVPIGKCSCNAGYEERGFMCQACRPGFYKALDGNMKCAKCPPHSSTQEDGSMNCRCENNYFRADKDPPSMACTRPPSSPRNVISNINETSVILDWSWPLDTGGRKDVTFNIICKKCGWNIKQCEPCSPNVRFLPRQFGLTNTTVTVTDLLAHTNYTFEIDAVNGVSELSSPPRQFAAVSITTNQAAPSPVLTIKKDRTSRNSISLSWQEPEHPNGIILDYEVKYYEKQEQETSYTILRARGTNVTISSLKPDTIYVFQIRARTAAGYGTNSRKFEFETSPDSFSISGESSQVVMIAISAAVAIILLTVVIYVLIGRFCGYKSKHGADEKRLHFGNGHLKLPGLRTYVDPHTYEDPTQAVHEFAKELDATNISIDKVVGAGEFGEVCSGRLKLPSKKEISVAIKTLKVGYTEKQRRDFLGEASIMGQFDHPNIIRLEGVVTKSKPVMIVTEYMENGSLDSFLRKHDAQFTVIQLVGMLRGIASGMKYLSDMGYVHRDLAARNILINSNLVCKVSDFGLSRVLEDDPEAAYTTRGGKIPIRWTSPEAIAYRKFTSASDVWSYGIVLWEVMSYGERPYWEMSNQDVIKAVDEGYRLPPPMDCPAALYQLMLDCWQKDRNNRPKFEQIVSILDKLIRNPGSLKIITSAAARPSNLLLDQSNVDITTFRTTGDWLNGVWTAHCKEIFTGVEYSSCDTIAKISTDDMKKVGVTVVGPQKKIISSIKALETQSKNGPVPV
Sequence of UniProt Q99683 (whole entry, looked up): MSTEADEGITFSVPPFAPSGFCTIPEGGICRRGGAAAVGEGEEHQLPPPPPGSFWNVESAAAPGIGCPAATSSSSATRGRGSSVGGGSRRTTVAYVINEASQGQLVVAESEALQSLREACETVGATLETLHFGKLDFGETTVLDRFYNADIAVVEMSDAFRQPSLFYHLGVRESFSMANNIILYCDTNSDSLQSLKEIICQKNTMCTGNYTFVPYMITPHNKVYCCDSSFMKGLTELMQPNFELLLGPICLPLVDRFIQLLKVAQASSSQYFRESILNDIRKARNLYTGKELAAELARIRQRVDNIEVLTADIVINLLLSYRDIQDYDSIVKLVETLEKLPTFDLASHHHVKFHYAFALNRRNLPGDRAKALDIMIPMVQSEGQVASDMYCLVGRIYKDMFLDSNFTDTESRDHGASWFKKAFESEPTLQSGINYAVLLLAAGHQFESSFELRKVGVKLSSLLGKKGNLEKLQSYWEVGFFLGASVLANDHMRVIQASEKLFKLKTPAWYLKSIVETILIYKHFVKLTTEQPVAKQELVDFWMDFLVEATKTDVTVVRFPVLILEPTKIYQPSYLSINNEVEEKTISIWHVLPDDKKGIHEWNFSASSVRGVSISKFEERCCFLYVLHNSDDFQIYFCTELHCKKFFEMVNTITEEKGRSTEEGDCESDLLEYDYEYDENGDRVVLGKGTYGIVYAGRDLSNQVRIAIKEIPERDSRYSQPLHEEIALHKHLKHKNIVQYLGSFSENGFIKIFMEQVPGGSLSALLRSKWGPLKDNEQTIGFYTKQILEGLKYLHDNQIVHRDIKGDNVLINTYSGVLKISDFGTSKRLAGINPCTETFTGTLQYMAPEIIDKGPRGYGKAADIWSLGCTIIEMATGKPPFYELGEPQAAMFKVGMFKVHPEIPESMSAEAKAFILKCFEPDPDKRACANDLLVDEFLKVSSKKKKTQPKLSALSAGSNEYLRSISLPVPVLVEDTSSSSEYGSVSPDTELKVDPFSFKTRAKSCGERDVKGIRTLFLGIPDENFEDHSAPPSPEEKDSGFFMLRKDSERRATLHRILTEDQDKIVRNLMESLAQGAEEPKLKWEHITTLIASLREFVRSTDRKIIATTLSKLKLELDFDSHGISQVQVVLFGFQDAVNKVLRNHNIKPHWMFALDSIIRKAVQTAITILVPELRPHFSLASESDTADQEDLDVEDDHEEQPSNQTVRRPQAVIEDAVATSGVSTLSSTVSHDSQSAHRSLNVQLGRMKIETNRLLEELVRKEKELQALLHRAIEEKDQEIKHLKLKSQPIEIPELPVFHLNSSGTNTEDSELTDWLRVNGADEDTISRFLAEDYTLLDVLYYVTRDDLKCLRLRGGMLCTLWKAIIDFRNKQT
Sequence of UniProt Q9NYY3 (whole entry, looked up): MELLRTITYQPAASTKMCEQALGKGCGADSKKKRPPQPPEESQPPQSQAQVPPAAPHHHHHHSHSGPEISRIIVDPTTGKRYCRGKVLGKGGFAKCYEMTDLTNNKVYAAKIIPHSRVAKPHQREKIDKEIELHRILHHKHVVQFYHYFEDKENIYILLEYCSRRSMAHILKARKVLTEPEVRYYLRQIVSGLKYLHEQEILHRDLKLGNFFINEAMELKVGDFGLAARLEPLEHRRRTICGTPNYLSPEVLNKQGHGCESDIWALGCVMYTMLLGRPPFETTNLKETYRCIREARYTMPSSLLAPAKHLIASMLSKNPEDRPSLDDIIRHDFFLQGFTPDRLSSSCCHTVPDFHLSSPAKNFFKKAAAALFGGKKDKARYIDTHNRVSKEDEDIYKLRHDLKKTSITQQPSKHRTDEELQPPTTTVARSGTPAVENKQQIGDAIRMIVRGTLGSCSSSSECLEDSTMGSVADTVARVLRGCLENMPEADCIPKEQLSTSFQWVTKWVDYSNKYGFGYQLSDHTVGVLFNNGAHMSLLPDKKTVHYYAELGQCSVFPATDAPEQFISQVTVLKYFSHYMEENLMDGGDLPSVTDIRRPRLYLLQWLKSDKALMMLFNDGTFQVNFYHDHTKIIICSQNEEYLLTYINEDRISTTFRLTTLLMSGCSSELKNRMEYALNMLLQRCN

Series 1 — technique: competition with immobilised ligand; tested at: 1 µM
Compound: O=C(Nc1cnc(Oc2ccc(F)cc2)nc1)N1CCc2ncccc2[C@@H]1c1ccc(F)cc1
For 1-phosphatidylinositol 3-phosphate 5-kinase (PIKFYVE, Homo sapiens, UniProt Q9Y2I7); cell-free assay: remaining binding read 63%.
It gave 100% for remaining binding (Serine/threonine-protein kinase PLK2 (PLK2, Homo sapiens, UniProt Q9NYY3); cell-free assay).
It gave 100% for remaining binding (Serine/threonine-protein kinase TAO1 (TAOK1, Homo sapiens, UniProt Q7L7X3); cell-free assay).
It gave 97% for remaining binding (Ribosomal protein S6 kinase alpha-3, N-terminal kinase domain (RPS6KA3, Homo sapiens, UniProt P51812); cell-free assay).
Dual specificity mitogen-activated protein kinase kinase 2 (MAP2K2, Homo sapiens, UniProt P36507); cell-free assay — remaining binding: 93%.
Serine/threonine-protein kinase ICK (CILK1, Homo sapiens, UniProt Q9UPZ9); binding — remaining binding: 92%.
For Dual specificity tyrosine-phosphorylation-regulated kinase 1A (DYRK1A, Homo sapiens, UniProt Q13627); cell-free assay: remaining binding read 100%.
It gave 100% for remaining binding (Tyrosine-protein kinase ABL1, phosphorylated (ABL1, Homo sapiens, UniProt P00519, Q252H); cell-free assay).

Series 2 — mode: inhibitor; notes: unit not given; together with: [3H]adenosine
Structure (SMILES): COc1cc(C(=O)OCCCN2CCCN(CCCOC(=O)c3cc(OC)c(OC)c(OC)c3)CC2)cc(OC)c1OC
SLC29A1: Equilibrative nucleoside transporter 1 (SLC29A1, Homo sapiens, UniProt Q99808)
Sequence of UniProt Q99808 (whole entry, unmodified, looked up): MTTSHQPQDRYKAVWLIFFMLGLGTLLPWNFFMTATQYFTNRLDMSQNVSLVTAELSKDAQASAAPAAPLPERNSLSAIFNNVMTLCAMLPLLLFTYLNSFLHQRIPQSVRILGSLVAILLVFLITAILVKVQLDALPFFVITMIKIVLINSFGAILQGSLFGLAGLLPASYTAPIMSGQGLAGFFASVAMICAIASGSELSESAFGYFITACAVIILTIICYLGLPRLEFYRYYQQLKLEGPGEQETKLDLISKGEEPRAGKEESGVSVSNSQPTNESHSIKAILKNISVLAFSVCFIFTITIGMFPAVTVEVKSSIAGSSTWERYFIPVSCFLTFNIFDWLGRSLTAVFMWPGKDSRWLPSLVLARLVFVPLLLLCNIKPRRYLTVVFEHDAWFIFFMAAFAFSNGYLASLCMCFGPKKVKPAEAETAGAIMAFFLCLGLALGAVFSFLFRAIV
SLC29A1; 10 µM; relative to: normalised control — adenosine uptake: 0.00887 and 0.0113 and 0.00691.
It gave 1.05 and 0.81 and 0.817 and 1.21 for adenosine uptake (SLC29A1; 1 pM; relative to: normalised control).
For Equilibrative nucleoside transporter 1 (SLC29A1, Homo sapiens, UniProt Q99808, G154S); Xenopus oocytes expressing SLC29A1 G154S; relative to: untreated: adenosine uptake read 0.0567 and 0.1 and 0.08.

Series 3 — SMILES: O=C1Cc2c([nH]c3ccc(Br)cc23)-c2ccccc2N1; effect on: enzyme activity; mode: inhibitor; tested at: 0.5 µM; relative to: control
For Ephrin type-A receptor 3 (EPHA3, Homo sapiens, UniProt P29320): remaining activity read 96%.
Mitogen-activated protein kinase 3 (MAPK3, Homo sapiens, UniProt P27361) — remaining activity: 100%.
It gave 102% for remaining activity (Casein kinase I isoform gamma-2 (CSNK1G2, Homo sapiens, UniProt P78368)).
For Tyrosine-protein kinase Mer (MERTK, Homo sapiens, UniProt Q12866): remaining activity read 89.5%.
Ribosomal protein S6 kinase alpha-2 (RPS6KA2, Homo sapiens, UniProt Q15349) — remaining activity: 94.9%.
For Serine/threonine-protein kinase Nek1 (NEK1, Homo sapiens, UniProt Q96PY6): remaining activity read 95.4%.
The remaining activity was 93% (Serine/threonine-protein kinase TBK1 (TBK1, Homo sapiens, UniProt Q9UHD2)).
The remaining activity was 19.7% (Glycogen synthase kinase-3 beta (GSK3B, Homo sapiens, UniProt P49841)).
It gave 100% for remaining activity (Serine/threonine-protein kinase Nek6 (NEK6, Homo sapiens, UniProt Q9HC98)).
For Mitogen-activated protein kinase kinase kinase 5 (MAP3K5, Homo sapiens, UniProt Q99683): remaining activity read 99.2%.
It gave 93.6% for remaining activity (Macrophage-stimulating protein receptor (MST1R, Homo sapiens, UniProt Q04912)).
For Activin receptor type-1B (ACVR1B, Homo sapiens, UniProt P36896): remaining activity read 99.8%.
The remaining activity was 106% (Mitogen-activated protein kinase kinase kinase 14 (MAP3K14, Homo sapiens, UniProt Q99558)).
The remaining activity was 103% (Tyrosine-protein kinase JAK3 (JAK3, Homo sapiens, UniProt P52333)).

Series 4 — effect on: binding; mode: competitor; technique: NanoBRET; cells: HEK293; relative to: vehicle and 20 µM BI compound
SMILES: Cn1cnc(Cn2ccc3ccc(CNCc4[nH]c5ccccc5c4[C@H]4NC(=O)c5ccc(O)cc54)cc32)c1
Target: GTPase KRas (KRAS, Homo sapiens, UniProt P01116, G12C)
The normalized BRET was 91.7% and 93.3% and 85.1% and 112% (3.05 nM, 0.5 h).
6.67 µM, 3 h — normalized BRET: 4.66% and 3.68% and 3.82% and 5.23%.
1.02 nM, 1 h — normalized BRET: 89.5% and 95.2% and 99.5% and 90.1%.
1.02 nM, 3 h — normalized BRET: 114% and 84.8% and 97.6% and 97.8%.
The normalized BRET was 92.8% and 95.5% and 97.3% and 99.9% (82.2 nM, 0.5 h).
